Results pooled from the literature.
Numbered parts are unrelated; each lists some results of a single study. Changes are numbered by the printed parent chain.

Study 1
Target: Prothrombin, mature alpha-thrombin (F2, Homo sapiens, UniProt P00734)
Method: aptamer microarray, sandwich
Form: DNA with 2'F-ANA
Medium: in vitro
Tested at: 200 nM
Notes: whole 15-mer aptamer, many near background
With: Cy3 exosite-II aptamer, 400 nM
Direction: higher = stronger binding
Oligonucleotide: GGTTGGTGTGGTTGG
| Modification | mean fluorescence intensity [a.u.] |
| --- | --- |
| 2'F-ANA at 2 5 6 7 8 13 14 | 52.2 |
| 2'F-ANA at 1 2 3 4 5 8 11 12 14 | 48.2 |
| 2'F-ANA at 2 4 5 11 15 | 53.9 |
| 2'F-ANA at 3 4 5 6 12 15 | 212 |
| 2'F-ANA at 1 2 3 5 6 7 9 11 14 15 | 49.9 |
| 2'F-ANA at 1 5 7 9 10 13 14 15 | 54.7 |
| 2'F-ANA at 2 3 8 11 12 13 14 | 496 |
| 2'F-ANA at 2 3 4 5 6 7 11 12 15 | 130 |
| 2'F-ANA at 1 2 3 5 6 7 10 11 13 14 15 | 70.4 |
| 2'F-ANA at 2 4 6 8 9 10 11 12 13 14 15 | 84.1 |
| 2'F-ANA at 3 4 7 9 10 13 14 15 | 231 |

Study 2
Target: CCNB3, cyclin fold, Cln2 fusion (human)
Method: yeast growth competition, sequencing
Medium: yeast
Notes: weak parent motif
Reference: not given
Direction: higher = stronger binding
Starting sequence: CDC6 docking peptide (human); TLKGRRLVFDNQL
| Substitution | normalised enrichment score |
| --- | --- |
| TLKGRRVVFDNQL [L7V] | -0.122 |
| TLKGRRLVFDNQW [L13W] | 0.72 |
| TLKGRRLVFDNQQ [L13Q] | 0.469 |
| TLKGRRLVFLNQL [D10L] | 0.371 |
| TLDGRRLVFDNQL [K3D] | 0.146 |
| TLKGRRLVFDNRL [Q12R] | -0.0547 |
| TLKGRRLVFDNQA [L13A] | 0.447 |
| TLKGRRLVEDNQL [F9E] | 0.143 |

Study 3
Target: ABI1, truncated, D143A, DHFR fusion (Arabidopsis thaliana)
Method: DHFR PCA, deep sequencing
Medium: yeast
Notes: methotrexate growth selection, single substitutions
With: (+)-ABA 4.8 µM
Reference: wild-type fitted maximum
Direction: higher = stronger binding
Starting sequence: PYL1, truncated, DHFR fusion (Arabidopsis thaliana); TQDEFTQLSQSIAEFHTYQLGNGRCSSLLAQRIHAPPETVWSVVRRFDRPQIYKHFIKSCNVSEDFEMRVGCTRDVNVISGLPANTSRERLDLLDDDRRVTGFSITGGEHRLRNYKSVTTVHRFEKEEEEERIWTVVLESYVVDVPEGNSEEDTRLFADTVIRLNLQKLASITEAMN; partner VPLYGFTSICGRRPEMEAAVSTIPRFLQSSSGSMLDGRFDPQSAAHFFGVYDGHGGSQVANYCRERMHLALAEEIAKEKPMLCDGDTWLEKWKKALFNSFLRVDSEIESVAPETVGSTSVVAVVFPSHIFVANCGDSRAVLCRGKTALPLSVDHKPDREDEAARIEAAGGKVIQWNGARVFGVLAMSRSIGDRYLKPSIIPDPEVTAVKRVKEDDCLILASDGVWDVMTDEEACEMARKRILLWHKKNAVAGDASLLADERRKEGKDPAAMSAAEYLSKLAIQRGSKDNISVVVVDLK
| Substitution | relative binding score [%] |
| --- | --- |
| G102E | -0.728 |
| W41E | -0.756 |
| R132G | 101 |
| Y141E | 3.02 |
| F56G | 2.35 |
| L169E | -10.5 |

Further values, each from its own experiment
| Molecule | target | test | test system | setting | how to read | measurement | result |
| --- | --- | --- | --- | --- | --- | --- | --- |
| PhoQ, residues 284 288 289 292 302 303 SCCLKL | PhoP, residues 12 14 15 18 19 LHHSG (Escherichia coli, UniProt P23836) | Sort-seq, item: YFP reporter | E. coli | PhoQ-PhoP variant library, with: 10 µM Mg2+ | reference: high Mg2+ state, higher = stronger signaling | fold induction | 0.303 |

Excerpt of the above (study 2):
| Substitution | normalised enrichment score |
| --- | --- |
| TLDGRRLVFDNQL [K3D] | 0.146 |
| TLKGRRLVEDNQL [F9E] | 0.143 |
| TLKGRRLVFDNQW [L13W] | 0.72 |
| TLKGRRLVFDNQA [L13A] | 0.447 |
